# Assay results pooled from the literature.
# Every numbered part comes from another study and shows a few of its results, in no order. Changes are numbered by the printed parent chain.

# Study 1
# Target: RNA binding protein fox-1 homolog 2, RRM domain, GST-SBP tag (RBFOX2, Homo sapiens, UniProt O43251-10, residues 100-194)
# Method: RNA Bind-n-Seq
# Form: RNA
# Medium: in vitro
# Concentration: 365 nM
# Notes: natural RNA segment, single round, ends assumed
# Relative to: no-protein control
# Direction: higher = stronger binding
# Construct (chain): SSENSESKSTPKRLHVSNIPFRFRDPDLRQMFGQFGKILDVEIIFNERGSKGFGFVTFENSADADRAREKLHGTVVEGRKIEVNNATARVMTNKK
Oligonucleotide,RBNS enrichment (R)
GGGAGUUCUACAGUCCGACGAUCGCAGGGAGCCGGCUGUGCCCAGUAUGCCUCCUGGACCCUCCAGUUCUGCCACAGGUCUGCCGAUGCCCUGUCCACUGCCUACACAUGACAGACAAGUAACCCCCUCAUGGUGGAAUUCUCGGGUGCCAA,0.75
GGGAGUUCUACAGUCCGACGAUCAGUGUGGCAGCUUUCACAGCACAGGACCGUUCAUCGGGGGCCUAAACGUUUCCCUCAGCUCUGUCACCAACUCACUUCUCUCGGCUUCGUUGUCUGUAAAUUGGAUGAAAUGGAAUUCUCGGGUGCCAA,0.438
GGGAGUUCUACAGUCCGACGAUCUUAUCAUUUCCAUCUGUCUGGUUAUGUCAAGUUAACUCAGAAAAAGAAGAGACACUGACCAACCCUGAGAGGCCCAACAGGGCAGAGAUGGAGGCCUGCCCAGAUGAAGAUGGAAUUCUCGGGUGCCAA,0.458
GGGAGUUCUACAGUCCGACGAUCCGCCUUACCUUUGAUGUCUGAAGCGAAACUCCUUUCACCAAGGGCCAGAUUCGGAAACUUCAACCUUGGCUGCUGGAGUCCUGUAGUGAUACCUGUAACAAUCAGAAAUUUGGAAUUCUCGGGUGCCAA,0.282
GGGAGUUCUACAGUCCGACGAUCAGUGAAGUAUUUUCAUAGUGAUCUGUGCUCCACUUAAUGUUUCCCAGGGACCAUUAGUGUCUUUUUAAAAUUACAUUUUAUUUCACAUUUCAUAAUUCAGAAGUAAACCUUGGAAUUCUCGGGUGCCAA,0.466
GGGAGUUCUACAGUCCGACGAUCUUUUUUUUAAGGGCCUUGGAGCCAUCUCUAAAACAAACCUCAAGGGAUUUAGUGCCCUGUCUCCCUGUCUCUAGAAGCCUUAGCCUGGGCACCUGGCUCAAUCUUGUAACUGGAAUUCUCGGGUGCCAA,0.435
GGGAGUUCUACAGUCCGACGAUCGUUUGCCCGUUUCUGAGGUCAGAUGGAUGGAUGUCUGAUGUCUUCCUGUGUUUUCCCUCGAUCUCUCCCCUUGGCCUCCUUUCGCACUCACAUCUUCCCAGGCUGCCUUUUGGAAUUCUCGGGUGCCAA,1.57
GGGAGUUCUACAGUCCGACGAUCAAUAGAAAUAAAAAGAUCUUCAGCCAGGCCUUUCUGAAGGAGUUAUUCUGCUAAAAAUGGUCUUAGUUGUCUGAAAAGCCAGCUCUUGAACCUCUUCACAACAGUAUCAAUGGAAUUCUCGGGUGCCAA,0.306
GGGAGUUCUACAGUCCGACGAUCUUCUAGGCUGUUCUGCUCAGAGCGAGGAACCACUGCUCCUCAAUGGGGAGGGAACAUACCACCCAGCCAGGCUUAGCAUUGGGUUUUAUCCUUUAAUAAAAGUUUUAUAAUGGAAUUCUCGGGUGCCAA,0.331
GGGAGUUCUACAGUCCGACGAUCCUUUUCUUGUUGAACUUCUUGGAAAAGCCACCAAUUCUAGAUCUUGAUUUGAAUUAAUACACACAAUAUCUGAGACACUUACACUUUUCAAAAGAUUUGUGUAUGCAUUGUGGAAUUCUCGGGUGCCAA,0.496
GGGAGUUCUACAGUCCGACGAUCAAAAAAAAGCUGUAACCUUAUCAUUUCUGAGUAGACCAUUAAGAGAAAUGCACACCUGUCAGCCCAGGACCAGCUUUGGUGGCUAAAGGGAAUAUUUUAACUCGCAAGGUUGGAAUUCUCGGGUGCCAA,0.582
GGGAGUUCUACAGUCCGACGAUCUCGUCCUUCCAUGGCUGUAAUUAAGAUGGGGGAGCUUCGCUGAUCGUUGUGUAGUGAGCACCUUGUUCCCACUUUUGUAGUCCUUUCCGUUCUGACCCGUCAGCAGCCUGUGGAAUUCUCGGGUGCCAA,0.708

# Study 2
# Target: CCND2, cyclin fold, Cln2 fusion (human)
# Method: yeast growth competition, sequencing
# Medium: yeast
# Notes: weak parent motif
# Relative to: not given
# Direction: higher = stronger binding
# Starting sequence: MICAL3 docking peptide (human); LQLRRQLSFSEDS; partner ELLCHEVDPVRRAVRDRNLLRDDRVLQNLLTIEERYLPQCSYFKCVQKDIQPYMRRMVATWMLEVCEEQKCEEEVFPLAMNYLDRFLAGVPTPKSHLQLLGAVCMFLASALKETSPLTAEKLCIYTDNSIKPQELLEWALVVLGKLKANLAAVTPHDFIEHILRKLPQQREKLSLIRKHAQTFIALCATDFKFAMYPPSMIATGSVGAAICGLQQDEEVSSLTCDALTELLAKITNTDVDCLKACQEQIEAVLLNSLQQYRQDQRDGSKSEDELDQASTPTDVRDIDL
Variant,normalised enrichment score
LQLGRQLSFSEDS [R4G],-0.063
LQLRRQISFSEDS [L7I],0.331
LQLRRNLSFSEDS [Q6N],0.0235
LQLRRQLSFSEKS [D12K],0.124
LQLRRQLSFSWDS [E11W],-0.17
LQLRRTLSFSEDS [Q6T],0.226
LQLCRQLSFSEDS [R4C],0.507
LQLRRQTSFSEDS [L7T],0.217
LQLRRQYSFSEDS [L7Y],-0.221
LQLRRQLSFSTDS [E11T],-0.0509
LQLRRQLSHSEDS [F9H],-0.265
LQLRRQLSFFEDS [S10F],0.171
LQLWRQLSFSEDS [R4W],0.163
LLLRRQLSFSEDS [Q2L],0.025
LVLRRQLSFSEDS [Q2V],0.439
LWLRRQLSFSEDS [Q2W],-0.118
LQLMRQLSFSEDS [R4M],-0.262
LQLPRQLSFSEDS [R4P],0.0139
LQLHRQLSFSEDS [R4H],0.0588
LQLRRQLSFNEDS [S10N],0.296
LQLRRQLSFCEDS [S10C],0.35
LQLRRQLSRSEDS [F9R],0.13
LQLRRQLSFPEDS [S10P],0.0668
LQLRSQLSFSEDS [R5S],-0.31
LQFRRQLSFSEDS [L3F],0.333

# Study 3
# Target: Histone acetyltransferase KAT6A, winged helix 2, GST fusion (KAT6A, Homo sapiens, UniProt Q92794, residues 85-181)
# Method: protein binding microarray
# Form: double-stranded DNA, one strand shown
# Medium: in vitro
# Concentration: not given
# Notes: 8-mer, flanks averaged, mean of 2 arrays, mostly near background
# Relative to: not given
# Direction: higher = stronger binding
# Residues (chain): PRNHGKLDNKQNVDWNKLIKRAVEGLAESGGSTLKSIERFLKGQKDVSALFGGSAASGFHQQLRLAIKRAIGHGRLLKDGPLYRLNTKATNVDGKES
Oligonucleotide,E-score
CAGTCACA,-0.0823
GGGTTGGA,0.136
TGAACTAA,-0.0833
CACTTACG,-0.0501
TGCGTACA,-0.0689
AAGTATGC,-0.057
CACCTTAA,-0.177
GCCCCACC,0.172
GACTTTCA,-0.183
GTACACTA,-0.151
ATCATCTG,0.0486
CGTGGCAG,0.097
CCTAGGAA,-0.0679
TAAGCTGA,-0.031
CATATCGA,-0.0468
CGCCTCTA,0.0636
ACAGTATG,-0.182
AACGGGCC,0.146

# Study 4
# Target: Hepatocyte nuclear factor 3-alpha (Foxa1, Mus musculus, UniProt P35582, residues 1-468, full length assumed)
# Method: EMSA with sequencing
# Form: double-stranded DNA, one strand shown
# Medium: in vitro
# Concentration: 10 and 20 nM
# Notes: whole designed probe, mean of two concentrations, ends assumed
# Relative to: negative control set to 0
# Direction: higher = stronger binding
# Target sequence (chain): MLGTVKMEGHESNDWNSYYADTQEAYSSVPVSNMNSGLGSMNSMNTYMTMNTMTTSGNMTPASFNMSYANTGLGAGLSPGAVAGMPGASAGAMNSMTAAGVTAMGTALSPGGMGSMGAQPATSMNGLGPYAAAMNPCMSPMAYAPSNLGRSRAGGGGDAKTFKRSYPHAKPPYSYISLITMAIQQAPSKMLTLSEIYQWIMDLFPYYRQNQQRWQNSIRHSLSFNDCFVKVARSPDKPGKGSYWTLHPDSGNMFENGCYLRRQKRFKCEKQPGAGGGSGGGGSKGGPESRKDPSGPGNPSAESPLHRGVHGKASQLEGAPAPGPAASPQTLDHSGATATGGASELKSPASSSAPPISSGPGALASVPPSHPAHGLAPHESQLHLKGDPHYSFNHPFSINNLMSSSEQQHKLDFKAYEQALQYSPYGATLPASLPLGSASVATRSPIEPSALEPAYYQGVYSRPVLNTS
Oligonucleotide,normalised bound fraction [ratio]
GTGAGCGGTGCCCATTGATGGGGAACCCAAGAAAAAGAGCCTTTGGGTGAGTGCACAGCACCCCTCTGTCTTAGGTCCCCAGATATATCTCAATTTGGGCTTCTTCTGGAACATGAAACTATTTACTTTGAGTTTCCTACGAAAACATAGTGCTGGCCTTAGACTTCCTATCCTGAAACCCCACGTCTATTTCCCAACCTCATGCATGGAAAAGTGCTCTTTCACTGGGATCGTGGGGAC,0.217
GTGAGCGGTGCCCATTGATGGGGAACTAGTCCCTCTTTCAAAAAACTTGCTAGATGCAAAACGATAGATATGGATATGGACGTGGACACAGGCCTAGGTATAGACAGATACACTTAATGTAATCTTGCACGTATATACATTCAAGTACTGTTAGGTACTGGGGATCCAAAGGTGGCTTCTATTAACAACAGCAGCCCTTACTCACTGAACATATCCTGTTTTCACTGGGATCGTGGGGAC,-0.0416
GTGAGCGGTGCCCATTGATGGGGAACTAACACACTAGGGTATTATTTGTTCTGTCCAATGCATCTTGGATATTCTTCCTCTAAAGACAAGAACTATCTTTTGGTTCCATCTTTGGGTCTTTGTTTACTTTGTGTCACTGGTGAGTATTTGCAGCTCTTTGGGAAAAACTCTTTTCTTAACCATAATGAATTGCTTTATAATTTGCATAGCTTTGCAAAGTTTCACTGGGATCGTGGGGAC,0.549
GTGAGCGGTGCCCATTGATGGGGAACATCTTCCCCCTCTTCCTTGCCCCACCAGCTCACCTTCCCGGGTTATTTGCACAAAGGAAAATAAATAAAGCCGGCATTCGTTAACCCTCTTCACGCGCATACTGCTGTTTGCTCTGGATGAATCATGGTCCTTTGGCGACGCCAGGCTCCGGGAGAGCAAAGCACCGTGTCAGGGCCATGATCCGGGGTGGCCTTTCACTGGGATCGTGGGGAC,0.368
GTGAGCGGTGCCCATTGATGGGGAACTATTTAATCTAGGCTACTGTGAATAGGAGAAAAATAGTTGCTAAAAGATGGCAGAGTTCACTCAATCCAATGAAATTTTAAAACATCTCAAAGTAATCTAAGCCAGAGAGTTCATCAGCTAATGCTGCGTCATAAGGTTATCTGCATATTAGGTGATCCCAGTGGCTACAGAACTGACTTTCAGAAACACTAGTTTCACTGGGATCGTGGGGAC,-0.0135
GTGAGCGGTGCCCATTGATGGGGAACATCTTCCCCCTCTTCCTTGCCCCACCAGCTCACCTTCCCGGGTCAAAGTAAACAAGTGTTTACTTTGAAGCCGGCATTCGTTAACCCTCTTCTGGCGCAAACTGCACATTGGTCTGGATGAATCATGGTCCTTTGGCGACGCCAGGCTCCGGGAGAGCAAAGCACCGTGTCAGGGCCATGATCCGGGGTGGCCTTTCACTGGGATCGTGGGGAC,0.424
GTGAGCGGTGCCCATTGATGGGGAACGGGGCATTAGCAACAGACTTTCATAGCTAAACCCTACTAGTTACAGAGATTTATTTATTAGTCCACTGGGCTAGAAAAAAAGCCATTCATATGTAATCTGGGAGATAATAAAGGCTATCACATTTATGTGTATACTCAAATGGAGCAATTTTAATTAACGTCTAAGTACCTTTACATATATTATAATTATTGTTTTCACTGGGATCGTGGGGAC,0.0591
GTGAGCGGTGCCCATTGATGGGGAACGAAACTGCTAATGATGAACCATTCTGAATGCAAGCTTCCATTTACTTTACAGTACTGGATTTCTCTATGGGCCTACAGGAATGTATGGCAAAGTAATTTAGGAAACAGATAAGTGAAATAGGTCATAAGGATCTGTAATTAATTTCTCAATTTCTTCATTGTATCTGTAATCAATTTCTCAATTTCTTCATTGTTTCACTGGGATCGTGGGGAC,-0.0292

# Study 5
# Target: Sal-like protein 4, full length isoform A (SALL4, Homo sapiens, UniProt Q9UJQ4, residues 1-1053)
# Chain of UniProt Q9UJQ4 (whole entry, looked up): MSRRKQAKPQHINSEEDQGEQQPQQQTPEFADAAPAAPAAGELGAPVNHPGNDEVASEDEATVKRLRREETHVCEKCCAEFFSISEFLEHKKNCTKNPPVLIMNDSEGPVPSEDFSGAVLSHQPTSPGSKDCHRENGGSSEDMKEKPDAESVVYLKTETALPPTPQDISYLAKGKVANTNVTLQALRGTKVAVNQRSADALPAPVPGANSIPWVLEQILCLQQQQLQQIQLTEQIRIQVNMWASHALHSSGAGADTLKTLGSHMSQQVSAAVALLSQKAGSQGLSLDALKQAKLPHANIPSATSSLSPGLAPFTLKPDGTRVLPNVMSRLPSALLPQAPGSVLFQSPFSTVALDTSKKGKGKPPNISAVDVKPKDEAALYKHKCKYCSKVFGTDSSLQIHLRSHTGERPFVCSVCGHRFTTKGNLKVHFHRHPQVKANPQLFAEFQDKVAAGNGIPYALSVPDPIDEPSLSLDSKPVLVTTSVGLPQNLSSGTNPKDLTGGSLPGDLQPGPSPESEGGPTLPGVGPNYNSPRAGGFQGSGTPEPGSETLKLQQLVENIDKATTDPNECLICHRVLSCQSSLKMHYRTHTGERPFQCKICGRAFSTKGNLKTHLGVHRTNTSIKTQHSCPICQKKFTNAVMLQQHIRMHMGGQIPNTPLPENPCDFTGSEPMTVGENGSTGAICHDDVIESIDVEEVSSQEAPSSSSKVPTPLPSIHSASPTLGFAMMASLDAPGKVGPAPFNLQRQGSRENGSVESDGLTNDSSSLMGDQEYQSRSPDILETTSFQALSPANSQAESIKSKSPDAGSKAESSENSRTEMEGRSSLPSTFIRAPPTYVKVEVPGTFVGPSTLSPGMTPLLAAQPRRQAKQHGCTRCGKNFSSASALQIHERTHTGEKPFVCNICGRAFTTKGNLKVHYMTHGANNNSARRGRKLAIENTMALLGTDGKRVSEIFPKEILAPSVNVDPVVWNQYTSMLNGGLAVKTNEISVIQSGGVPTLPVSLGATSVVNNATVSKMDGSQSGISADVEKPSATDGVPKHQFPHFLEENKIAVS
# Method: universal PBM
# Form: double-stranded DNA, one strand shown
# Medium: in vitro
# Concentration: 600 nM
# Notes: 8-mer, flanks averaged, mean of replicates
# Direction: higher = stronger binding
Oligonucleotide,E-score
ACACAAGT,0.0967
ATTTAGAG,0.13
GCCCTGAA,-0.0905
CAGGAATC,0.0687
AGATCTAA,0.0485
AAATTACG,0.241
AATAACGG,0.321
AACCTGAC,-0.0141
GGCTAGAA,-0.0417
CTTGAGAC,-0.0692
AAAAGCTA,0.143
GATGCAAA,0.167
CCTACCTA,0.0123
AACGAGCT,-0.0835
ACGCAGTG,-0.264
ATGTTGAC,0.191
CACTCTAG,-0.0655
AATCCGTA,0.0298
GACATTTA,0.175
CGGCGAGA,-0.332

# Repeated from above (study 3):
Oligonucleotide,E-score
CACCTTAA,-0.177
GCCCCACC,0.172
GACTTTCA,-0.183
GTACACTA,-0.151
ATCATCTG,0.0486
CGTGGCAG,0.097
CCTAGGAA,-0.0679
TAAGCTGA,-0.031
CATATCGA,-0.0468
CGCCTCTA,0.0636
ACAGTATG,-0.182
